Measured values from different studies.
“And” joins repeats or separate records; there may be more than shown.
UniProt P10635, sequence (whole entry, looked up): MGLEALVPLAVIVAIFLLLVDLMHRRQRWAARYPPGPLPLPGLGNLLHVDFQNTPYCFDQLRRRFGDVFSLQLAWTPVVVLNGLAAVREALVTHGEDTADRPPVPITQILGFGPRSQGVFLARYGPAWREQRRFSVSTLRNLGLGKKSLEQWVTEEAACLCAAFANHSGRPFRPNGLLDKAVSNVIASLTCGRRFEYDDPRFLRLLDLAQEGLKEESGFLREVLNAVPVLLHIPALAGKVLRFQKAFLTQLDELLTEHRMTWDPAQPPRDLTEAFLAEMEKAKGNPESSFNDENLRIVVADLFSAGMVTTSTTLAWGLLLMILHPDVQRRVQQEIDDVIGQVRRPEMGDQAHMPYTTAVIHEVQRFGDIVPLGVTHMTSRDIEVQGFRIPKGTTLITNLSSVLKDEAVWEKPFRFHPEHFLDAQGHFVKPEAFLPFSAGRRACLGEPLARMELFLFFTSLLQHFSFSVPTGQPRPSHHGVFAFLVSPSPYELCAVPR

The revertants of CCN(CC)CC#CCNc1ccnc2cc(Cl)ccc12 is reported as 6 revertants/well and 5 revertants/well (Salmonella typhimurium; mini-Ames test; TA98; 62.5 µg/well, without S9).
The SUV of O=C(Nc1cnccc1-c1ccc([18F])nc1)c1ccnc(NC(=O)C2CC2)c1 is reported as 0.062 (FVB/NJ mice (both sexes), skin; intravenous, dose not given, 120 min).
For O=C1C2CC3CC1CC(C(=O)N1CCN(c4ccc([N+](=O)[O-])c5ncccc45)CC1)(C3)C2, “revertant fold increase” read 1 (Escherichia coli; Ames test; WP2 uvrA pKM101; 0.13 µg/well, with S9; relative to: vehicle).
CC(C)Cc1ccc(C(C)C(=O)N[C@@H](CCCCNC(=O)CCOCCOCCOCCOCCOCCOCCNC(=O)CN2CCN(CC(=O)[O-])CCN(CC(=O)[O-])CCN(CC(=O)[O-])CC2)C(=O)Nc2cccc3c(C(=O)NCC(=O)N4CC(F)(F)C[C@H]4C#N)ccnc23)cc1.[177Lu+3] (stereo partly drawn) has a tracer uptake of 4.85 %ID/g (U-87 MG tumour model; host not given, liver; 4 h, tumour-bearing).
For CC(C)OCCOCc1ccc(OCC(O)CN(N=O)C(C)C)cc1 (stereo not drawn), “revertant fold increase” read 1.3 fold (Salmonella typhimurium; Ames test; TA1537; 500 µg/plate, 30 % rat S9; relative to: solvent control).
With Nc1nc(-c2ccccc2)nc2[nH]nc(Nc3cccnc3)c12 the CC50 was greater than 165 µM (HeLa Ohio; 72 h).
With CN(Cc1ccccc1)C(=O)CN1CCN(CC(=O)[O-])CCN(Cc2cccc(C(=O)[O-])n2)CC1.[44Sc+3] the tracer uptake was 0.39 %ID/g (mouse, blood; intravenous, 1 h).
The CC50 of Nc1nc(-c2ccccc2)nc2[nH]nc(Nc3c(F)cccc3F)c12 is reported as greater than 148 µM (HeLa Ohio; 72 h).
CNC(=O)C1CCCN(C(=O)C2CC3CCC2N3C(=O)[C@@H]2C[C@@H](O)CN2C(=O)NCc2cccc(Cl)c2F)C1 (mixture of isomers) gave a remaining activity of 131% (Cytochrome P450 2D6 (CYP2D6, Homo sapiens, UniProt P10635); enzyme activity, inhibitor, time-dependent inhibition; 16.7 µM, preincubated with NADPH; relative to: negative control).
Nc1nc(-c2ccccc2)nc2[nH]nc(Nc3ccc(F)c(Cl)c3)c12 gave a CC50 of greater than 141 µM (HeLa Ohio; 72 h).
With N#C[C@@H]1CC(F)(F)CN1C(=O)CNC(=O)c1ccnc2c(NC(=O)[C@@H](N)CCCCNC(=O)CCOCCOCCOCCOCCOCCOCCNC(=O)CN3CCN(CC(=O)[O-])CCN(CC(=O)[O-])CCN(CC(=O)[O-])CC3)cccc12.[177Lu+3] the tracer uptake was 0.04 %ID/g (U-87 MG tumour model; host not given, stomach; 48 h, tumour-bearing).
With Nc1nc(-c2ccccc2)nc2[nH]nc(Nc3ccc(F)c(F)c3F)c12 the CC50 was greater than 140 µM (HeLa Ohio; 72 h).
O=C([O-])CN1CCN(CC(=O)[O-])CCN(Cc2cccc(C(=O)[O-])n2)CC1.[18F-].[Sc+3] gave a tracer uptake of 0.48 %ID/g (mouse, liver; intravenous, 1 h).
OC(Cc1cc(-c2ccc(C(O)C(F)(F)F)s2)sc1-c1ccc(-c2sc(-c3ccc(C(O)C(F)(F)F)s3)cc2CC(O)C(F)(F)F)s1)C(F)(F)F (stereo not drawn) — result for “amount in cell extract”: 0.06 nmol and 0.04 nmol and 0.03 nmol (primary human fetal neurons; LC-MS/MS; 4 µM, 15 min, replicate 2).
With Nc1nc(-c2ccccn2)nc2[nH]nc(Nc3ccc(F)cc3)c12 the CC50 was greater than 156 µM (HeLa Ohio; 72 h).

Some of these lines once more:
OC(Cc1cc(-c2ccc(C(O)C(F)(F)F)s2)sc1-c1ccc(-c2sc(-c3ccc(C(O)C(F)(F)F)s3)cc2CC(O)C(F)(F)F)s1)C(F)(F)F (stereo not drawn) — result for “amount in cell extract”: 0.06 nmol and 0.04 nmol and 0.03 nmol (primary human fetal neurons; LC-MS/MS; 4 µM, 15 min, replicate 2).
With Nc1nc(-c2ccccn2)nc2[nH]nc(Nc3ccc(F)cc3)c12 the CC50 was greater than 156 µM (HeLa Ohio; 72 h).
